# Assay results collected from several papers.
# A part holds a random share of what one study measured. Changes are numbered by the printed parent chain.

# Block 1 — technique: protein binding microarray; form: double-stranded DNA, one strand shown; medium: in vitro; concentration: not given; relative to: not given; reading: higher = stronger binding
# Target: Histone acetyltransferase KAT6A, both winged helices, GST fusion (KAT6A, Homo sapiens, UniProt Q92794, residues 1-181)
# Setting: 8-mer, flanks averaged, mean of 2 arrays, mostly near background
# Construct (chain): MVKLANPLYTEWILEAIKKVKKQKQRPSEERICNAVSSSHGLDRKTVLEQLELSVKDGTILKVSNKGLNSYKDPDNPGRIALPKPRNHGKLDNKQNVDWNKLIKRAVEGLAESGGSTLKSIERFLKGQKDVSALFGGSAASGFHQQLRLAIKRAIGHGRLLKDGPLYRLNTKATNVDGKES
Strand,E-score
ATATCCAG,-0.0444
TTAAGAAA,-0.0587
ATCAGCTC,-0.0909
ACGCGAAG,0.157
CTAAATAC,-0.0795
AATGTTAG,-0.0404
GAGCCGCC,0.232
AGTCGGGA,0.149
GCTACCTA,-0.136
CGTGACTC,0.0198
ACGGCGGA,0.243
ACGTCACG,0.118
AAACGCGC,0.286
ACCGCGCA,0.318
TACGGTGA,0.131
GATCATGA,0.00651
CTGCCAAG,-0.17
GCCTCTAA,-0.0625
GTGGGAAA,-0.22
GCTAGCTA,-0.0149
AGGATATC,-0.159
GGATTCGA,-0.0665
ATGGAGGC,-0.0685
CTGCAAAG,-0.096
CAAAGCAG,-0.133

# Block 2 — target: UBE2E3 UBC core domain (UniProt Q969T4); technique: yeast two-hybrid; medium: yeast; setting: mostly zero background; relative to: not given; reading: higher = stronger interaction
# Chain of UniProt Q969T4 (whole entry, looked up): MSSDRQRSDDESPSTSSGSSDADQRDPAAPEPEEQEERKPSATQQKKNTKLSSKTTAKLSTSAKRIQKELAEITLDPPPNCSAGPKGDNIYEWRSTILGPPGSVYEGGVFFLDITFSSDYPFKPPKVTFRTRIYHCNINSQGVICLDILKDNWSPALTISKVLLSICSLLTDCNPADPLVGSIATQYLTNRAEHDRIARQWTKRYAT
# B1: RNF149 RING domain (UniProt Q8NC42); chain EKGIDVDAENCAVCIENFKVKDIIRILPCKHIFHRICIDPWLLDHRTCPMCKLDVIKALGYW
# B2: TRIM3 RING domain (UniProt O75382); chain VQPMDKQFLVCSICLDRYQCPKVLPCLHTFCERCLQNYIPAQSLTLSCPVCRQTSILPEQGV
# B3: TRIM38 RING domain (UniProt O00635); chain STKKMMEEATCSICLSLMTNPVSINCGHSYCHLCITDFFKNPSQKQLRQETFCCPQCRAPFHMDSLRP
# B4: RFPL2 RING domain (UniProt O75678); chain MAALFQEASSCPVCSDYLEKPMSLECGCAVCLKCINSLQKEPHGEDLLCCCSSMVSRKNKIRR
# B5: TRIM15 RING domain (UniProt Q9C019); chain SLKVVHELPACTLCAGPLEDAVTIPCGHTFCRLCLPALSQMGAQSSGKILLCPLCQEEEQAETPMA
# B6: RNF4 RING domain (UniProt P78317); chain TGLRPSGTVSCPICMDGYSEIVQNGRLIVSTECGHVFCSQCLRDSLKNANTCPTCRKKINHKRYHP
# B7: RNF150 RING domain (UniProt Q9ULK6); chain DKETESDFDNCAVCIEGYKPNDVVRILPCRHLFHKSCVDPWLLDHRTCPMCKMNILKALGIP
# B8: MSL2 RING domain (UniProt Q9HCI7); chain LLPYFRQSLSCCVCGHLLQDPIAPTNSTCQHYVCKTCKGKKMMMKPSCSWCKDYEQFEENKQ
# B9: TRIM35 RING domain (UniProt Q9UPQ4); chain PSRSFKEELLCAVCYDPFRDAVTLRCGHNFCRGCVSRCWEVQVSPTCPVCKDRASPADLRT
# B10: RNF175 RING domain (UniProt Q8N4F7); chain LPTRSLSDNICAVCGQKIIVELDEEGLIENTYQLSCNHVFHEFCIRGWCIVGKKQTCPYCKEKVDLKRMIS
# B11: TRIM52 RING domain (UniProt Q96A61); chain PMQTLQEEAVCAICLDYFKDPVSISCGHNFCRGCVTQLWSKEDEEDQNEEEDEWEEEEDEEAV
Sequence,lacZ reporter activity
B1 (RNF149 RING domain),0
B2 (TRIM3 RING domain),0
B3 (TRIM38 RING domain),0
B4 (RFPL2 RING domain),0
B5 (TRIM15 RING domain),0
B6 (RNF4 RING domain),2950
B7 (RNF150 RING domain),2880
B8 (MSL2 RING domain),0
B9 (TRIM35 RING domain),0
QLQDEEDDSLCRICMDAVIDCVLLECGHMVTCTKCGKRMSECPICRQYVVRAVHVF (RNF34 RING domain (UniProt Q969K3)),0
B10 (RNF175 RING domain),0
SYEDKSNDFVCPICFDMIEEAYMTKCGHSFCYKCIHQSLEDNNRCPKCNYVVDNIDHLY (COP1 RING domain (UniProt Q8NHY2)),0
B11 (TRIM52 RING domain),0

# Block 3 — technique: RNA Bind-n-Seq; form: RNA; medium: in vitro; concentration: 365 nM; relative to: no-protein control; reading: higher = stronger binding
# Target: RNA binding protein fox-1 homolog 2, RRM domain, GST-SBP tag (RBFOX2, Homo sapiens, UniProt O43251-10, residues 100-194)
# Setting: natural RNA segment, single round, ends assumed
# Residues (chain): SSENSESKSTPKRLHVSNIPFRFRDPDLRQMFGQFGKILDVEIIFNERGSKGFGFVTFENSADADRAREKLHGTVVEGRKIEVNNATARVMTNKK
Strand,RBNS enrichment (R)
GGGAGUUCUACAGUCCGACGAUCAUACUGACUGCUAAGUGUACUAUACUGUUUGCUUUACUAAUCACCUAAUUCAUUGCAGUUCAUACUUAUUGACUCAGAGUUUAAAACCACAAUCUGUAGGCUUUAAGAAUUGGAAUUCUCGGGUGCCAA,0.423
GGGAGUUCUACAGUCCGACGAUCUGCCAAGGGCCUGGAUAAAGGGGAACUACGGCAUCUUGGAGCUCACAAAUGUGAAUCAAGCAGUCCGGCAUUCUGGAAAGCCUUGGCAUGGUUCUGUAAAGCUCUUGUACUGGAAUUCUCGGGUGCCAA,0.494
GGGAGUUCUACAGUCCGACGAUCCUGUGUCAUCAACUUAUCCUAGUACCUCAGUGUUCAUUCCUGUUACCUGCAUAUCUUCUUAAAAGAAAUAGCUGUUAUUAAUGCCUUUUUGUUUUCCAUUGAGUGUACACUGGAAUUCUCGGGUGCCAA,0.462
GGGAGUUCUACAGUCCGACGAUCGCAUCAUUCCAGCCAGACUUGCUGAAAAUCUACUGGUGAGGCAAAUAUAAUAUAUAUAAAUAUGCUACAUAUAUAUUUAUAAAAUUUCUAGUGGGAGUUCUAUAUAAAUGUGGAAUUCUCGGGUGCCAA,3.13
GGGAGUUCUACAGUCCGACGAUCCCCAUCUUUCCCUGCAAGGCCACACCGUGCAUUUACAGCAGUGUGGCAAGGUGUAGGAGGGACCUUGAACCUGGCUGGCCAGGGCAGCAGCAGGAGUAGGUAGAGCUGUUUGGAAUUCUCGGGUGCCAA,0.815
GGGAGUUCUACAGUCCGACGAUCUUGAAGUUAUAUAUAUAUAAAACAAGUGUCUAUUUCUAGCUGAAAGAGUUUACCUCUUCUAGACAUUUAUGCCCAAUGGUGUCACACAUGAUCAUUUGCUCCUGCUCUAAUGGAAUUCUCGGGUGCCAA,0.503
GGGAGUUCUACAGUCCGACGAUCGAAAGCUAACUUCUAACUUCCUUCCGCUGAGAUGUCUUCUGCUGCCUCAUUUGCAAGAUGUGCAAGCUUAAUGUCUUCUUCACCAUAAAGCAACAUGGAAAUAACCAUAGUGGAAUUCUCGGGUGCCAA,0.328
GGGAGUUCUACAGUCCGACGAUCUGUUCUUCUCGUGGGUUUGUGCCGUGCUGCUUUCCAAAUAGGUAUUGAAUUUAUGCAUUAGUCUGGUGAUUUCAGUUCUGUGAAAUAUUUUGGGAUCUAUACCAAUUAAAUGGAAUUCUCGGGUGCCAA,0.706

# Block 4 — target: CCNB3, cyclin fold, Cln2 fusion (human); technique: yeast growth competition, sequencing; medium: yeast; setting: weak parent motif; relative to: not given; reading: higher = stronger binding
# Starting sequence: WEE1 docking peptide (human); CTLRQKLIFSPCS
Substitution,normalised enrichment score
CTLRQKLIFSPAS [C12A],0.251
CTLRQKLIFSPCA [S13A],0.167
CTLAQKLIFSPCS [R4A],0.0149
CALRQKLIFSPCS [T2A],0.263
CTLRQKLIFAPCS [S10A],0.107
CTARQKLIFSPCS [L3A],0.101
ATLRQKLIFSPCS [C1A],0.141

# Repeated from above (block 1):
Strand,E-score
CTGCCAAG,-0.17
GCCTCTAA,-0.0625
GTGGGAAA,-0.22
GCTAGCTA,-0.0149
AGGATATC,-0.159
GGATTCGA,-0.0665
